# Assay results pooled from the literature.
# Every numbered part comes from another study and shows a few of its results, in no order.
# UniProt Q9Y6M4, sequence (whole entry, looked up): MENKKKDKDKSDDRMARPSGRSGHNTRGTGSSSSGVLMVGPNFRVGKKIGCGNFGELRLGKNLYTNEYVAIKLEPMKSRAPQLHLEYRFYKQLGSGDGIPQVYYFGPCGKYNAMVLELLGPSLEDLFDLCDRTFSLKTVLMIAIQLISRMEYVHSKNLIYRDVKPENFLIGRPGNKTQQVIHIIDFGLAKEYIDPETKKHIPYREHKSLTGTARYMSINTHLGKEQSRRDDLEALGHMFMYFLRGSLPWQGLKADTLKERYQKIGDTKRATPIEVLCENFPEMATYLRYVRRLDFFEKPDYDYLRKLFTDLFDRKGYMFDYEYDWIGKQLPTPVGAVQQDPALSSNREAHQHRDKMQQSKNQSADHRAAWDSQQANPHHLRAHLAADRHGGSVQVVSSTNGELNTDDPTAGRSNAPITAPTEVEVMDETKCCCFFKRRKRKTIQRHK
# UniProt Q8WTQ7, sequence (whole entry, looked up): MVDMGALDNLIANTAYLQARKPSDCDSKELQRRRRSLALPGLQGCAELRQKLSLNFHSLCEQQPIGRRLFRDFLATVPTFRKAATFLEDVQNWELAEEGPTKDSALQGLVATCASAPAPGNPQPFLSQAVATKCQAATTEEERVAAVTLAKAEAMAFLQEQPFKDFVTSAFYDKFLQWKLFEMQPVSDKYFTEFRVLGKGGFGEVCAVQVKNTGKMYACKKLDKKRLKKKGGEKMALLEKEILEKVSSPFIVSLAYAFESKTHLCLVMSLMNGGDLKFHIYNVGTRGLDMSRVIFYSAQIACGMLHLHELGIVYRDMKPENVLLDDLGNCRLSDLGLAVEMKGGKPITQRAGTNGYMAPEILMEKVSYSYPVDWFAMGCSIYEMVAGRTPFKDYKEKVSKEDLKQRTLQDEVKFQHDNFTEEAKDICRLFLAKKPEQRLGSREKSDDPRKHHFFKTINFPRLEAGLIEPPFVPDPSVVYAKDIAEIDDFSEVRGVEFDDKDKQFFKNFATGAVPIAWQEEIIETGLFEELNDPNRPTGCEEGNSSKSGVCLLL
# UniProt P20794, sequence (whole entry, looked up): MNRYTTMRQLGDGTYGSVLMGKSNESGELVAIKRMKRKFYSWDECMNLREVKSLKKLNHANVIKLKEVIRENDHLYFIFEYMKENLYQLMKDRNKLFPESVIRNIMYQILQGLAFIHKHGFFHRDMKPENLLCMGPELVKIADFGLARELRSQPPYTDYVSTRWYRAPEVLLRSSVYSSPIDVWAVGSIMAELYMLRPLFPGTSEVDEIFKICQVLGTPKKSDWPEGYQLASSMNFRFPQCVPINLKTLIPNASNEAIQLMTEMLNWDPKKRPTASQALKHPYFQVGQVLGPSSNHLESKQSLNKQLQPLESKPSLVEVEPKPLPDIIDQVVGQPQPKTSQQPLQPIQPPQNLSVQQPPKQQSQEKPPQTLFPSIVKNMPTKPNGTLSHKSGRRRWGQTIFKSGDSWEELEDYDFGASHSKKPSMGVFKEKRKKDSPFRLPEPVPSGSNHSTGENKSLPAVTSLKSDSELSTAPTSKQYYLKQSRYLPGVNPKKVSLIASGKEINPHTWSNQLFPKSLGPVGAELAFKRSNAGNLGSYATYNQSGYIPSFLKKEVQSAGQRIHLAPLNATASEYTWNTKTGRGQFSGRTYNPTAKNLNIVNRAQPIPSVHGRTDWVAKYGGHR
# UniProt O94768, sequence (whole entry, looked up): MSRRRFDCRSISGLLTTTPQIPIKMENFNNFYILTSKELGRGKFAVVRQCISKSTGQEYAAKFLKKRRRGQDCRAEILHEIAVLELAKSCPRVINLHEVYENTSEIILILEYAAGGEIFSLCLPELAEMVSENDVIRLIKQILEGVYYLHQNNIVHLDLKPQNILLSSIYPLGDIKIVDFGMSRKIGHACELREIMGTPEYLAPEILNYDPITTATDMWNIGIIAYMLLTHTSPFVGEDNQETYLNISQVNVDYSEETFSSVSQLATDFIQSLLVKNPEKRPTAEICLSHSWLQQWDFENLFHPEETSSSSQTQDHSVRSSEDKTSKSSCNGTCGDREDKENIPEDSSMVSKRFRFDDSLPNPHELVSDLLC
# UniProt Q92918, sequence (whole entry, looked up): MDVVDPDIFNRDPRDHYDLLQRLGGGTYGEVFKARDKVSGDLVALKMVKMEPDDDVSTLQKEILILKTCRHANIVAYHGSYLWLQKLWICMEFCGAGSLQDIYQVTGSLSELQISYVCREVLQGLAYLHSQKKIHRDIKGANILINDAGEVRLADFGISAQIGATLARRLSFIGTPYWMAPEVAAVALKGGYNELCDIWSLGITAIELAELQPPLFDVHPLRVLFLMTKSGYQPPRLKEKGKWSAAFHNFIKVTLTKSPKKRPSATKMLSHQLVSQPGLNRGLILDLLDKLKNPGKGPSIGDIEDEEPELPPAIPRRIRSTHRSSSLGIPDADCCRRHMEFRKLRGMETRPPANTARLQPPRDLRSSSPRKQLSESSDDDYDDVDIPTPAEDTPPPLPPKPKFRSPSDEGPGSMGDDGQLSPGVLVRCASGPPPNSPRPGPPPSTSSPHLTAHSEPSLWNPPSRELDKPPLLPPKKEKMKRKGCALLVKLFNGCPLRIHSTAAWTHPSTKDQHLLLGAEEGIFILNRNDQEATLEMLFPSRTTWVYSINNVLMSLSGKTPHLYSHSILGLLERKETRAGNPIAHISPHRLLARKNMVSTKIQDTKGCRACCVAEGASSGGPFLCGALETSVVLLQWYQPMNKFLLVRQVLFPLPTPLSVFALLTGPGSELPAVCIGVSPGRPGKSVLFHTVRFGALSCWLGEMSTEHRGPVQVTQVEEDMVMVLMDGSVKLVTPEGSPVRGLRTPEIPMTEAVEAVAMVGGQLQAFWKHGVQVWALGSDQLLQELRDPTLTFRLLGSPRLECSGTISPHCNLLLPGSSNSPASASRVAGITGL

# Set 1 — read-out: cell-free assay; method: competition with immobilised ligand; concentration: 0.1 µM
# Structure (SMILES): CNC(=O)c1ccc(Nc2ncc(C(F)(F)F)c(NCc3nccnc3N(C)S(C)(=O)=O)n2)cc1
target,remaining binding [%]
"Rhodopsin kinase GRK7 (GRK7, Homo sapiens, UniProt Q8WTQ7)",97
"Casein kinase I isoform gamma-3 (CSNK1G3, Homo sapiens, UniProt Q9Y6M4)",100
"Serine/threonine-protein kinase 17B (STK17B, Homo sapiens, UniProt O94768)",100
"Receptor tyrosine-protein kinase erbB-2 (ERBB2, Homo sapiens, UniProt P04626)",100
"Serine/threonine-protein kinase MAK (MAK, Homo sapiens, UniProt P20794)",85
"Mitogen-activated protein kinase kinase kinase kinase 1 (MAP4K1, Homo sapiens, UniProt Q92918)",18

# Set 2 — read-out: enzyme activity; action: inhibitor; concentration: 0.5 µM; baseline: control
# Target: SRSF protein kinase 2 (SRPK2, Homo sapiens, UniProt P78362)
# UniProt P78362, sequence (whole entry, looked up): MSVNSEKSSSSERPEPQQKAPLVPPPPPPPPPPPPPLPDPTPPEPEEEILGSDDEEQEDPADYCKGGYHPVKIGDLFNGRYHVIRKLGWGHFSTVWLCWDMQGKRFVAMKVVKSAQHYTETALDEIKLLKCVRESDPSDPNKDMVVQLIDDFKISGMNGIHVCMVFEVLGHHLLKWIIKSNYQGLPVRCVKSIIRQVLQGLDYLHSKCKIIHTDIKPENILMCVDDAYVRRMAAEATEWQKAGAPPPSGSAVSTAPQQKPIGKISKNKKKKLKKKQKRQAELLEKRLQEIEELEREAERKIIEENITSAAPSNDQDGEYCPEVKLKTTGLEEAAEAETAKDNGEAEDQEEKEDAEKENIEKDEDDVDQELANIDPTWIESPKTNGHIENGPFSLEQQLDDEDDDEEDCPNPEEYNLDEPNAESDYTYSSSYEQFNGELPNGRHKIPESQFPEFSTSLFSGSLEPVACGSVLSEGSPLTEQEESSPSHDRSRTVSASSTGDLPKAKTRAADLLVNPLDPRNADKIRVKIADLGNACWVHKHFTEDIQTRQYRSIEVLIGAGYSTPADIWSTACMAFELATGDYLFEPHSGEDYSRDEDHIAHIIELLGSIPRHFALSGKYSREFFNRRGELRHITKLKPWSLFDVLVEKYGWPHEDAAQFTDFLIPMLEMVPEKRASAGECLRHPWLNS
SMILES,remaining activity
Cc1cn(-c2cc(NC(=O)c3ccc(C)c(Nc4nccc(-c5cccnc5)n4)c3)cc(C(F)(F)F)c2)cn1,102%
O=C(NC(NC(=S)Nc1ccc(F)c([N+](=O)[O-])c1)C(Cl)(Cl)Cl)C(c1ccccc1)c1ccccc1 (centres unmarked),103%
CN([C@@H](Cc1ccc(OS(=O)(=O)c2cccc3cnccc23)cc1)C(=O)N1CCN(c2ccccc2)CC1)S(=O)(=O)c1cccc2cnccc12,99.4%
Cc1cc2ncc(-c3ccccc3)nc2cc1C,95.3%
Ic1cccc(CSc2nnc(-c3ccncc3)o2)c1,97.4%
Nc1cccc(-c2cc3c(Oc4cccc(O)c4)ncnc3[nH]2)c1,99.1%
c1ccc(-c2cnc(Nc3ccc(OCCN4CCCC4)cc3)s2)cc1,103%
N#Cc1c(NC(=O)c2cccc3ccccc23)sc2c1CCCC2,99.2%
CCOc1nc(NC(=O)Cc2cc(OC)ccc2OC)cc(N)c1C#N,97.8%
O=C(Nc1cccc(Nc2nccc(Nc3cccc(C(F)(F)F)c3)n2)c1)C1CC1,104%
Cc1nc2cc3nc(-c4cccs4)cnc3cc2n1C,104%

# Set 3 — cell line: Huh-7; concentration: 10 µM; time: 24 h
Structure (SMILES),viability
CC(C)(C)NC[C@H](O)COc1cccc2c1CCCC2=O,100%
CCOc1ccc2ccccc2c1C(=O)N[C@@H]1C(=O)N2[C@@H]1SC(C)(C)[C@@H]2C(=O)O,98%
NC(=O)c1cccnc1,101%
N=C(N)NC(=O)c1nc(Cl)c(N)nc1N,98.2%
CN(C(=O)C(Cl)Cl)c1ccc(OC(=O)c2ccco2)cc1,85.3%
COc1ccc([C@@H]2Sc3ccccc3N(CCN(C)C)C(=O)[C@@H]2OC(C)=O)cc1,92.5%
NCC[C@H](O)C(=O)N[C@@H]1C[C@H](N)[C@@H](O[C@H]2O[C@H](CN)[C@@H](O)[C@H](O)[C@H]2O)[C@H](O)[C@H]1O[C@H]1O[C@H](CO)[C@@H](O)[C@H](N)[C@H]1O,96.8%
Nc1ccc(S(=O)(=O)Nc2cnc3ccccc3n2)cc1,98.4%

# Single results of other studies
Structure (SMILES),method,host,dose,setting,quantity,result
CC(C)n1cnc(-c2ccc(F)cc2)c1-c1ncc(C(=O)Nc2ccc(N3CCN(C)CC3)cc2)[nH]1,phase 2a trial,idiopathic pulmonary fibrosis patients,30 mg once daily,adverse event grade 4,patients with cardiac disorders,0%

# For quick reference, copied from above (set 2):
SMILES,remaining activity
O=C(NC(NC(=S)Nc1ccc(F)c([N+](=O)[O-])c1)C(Cl)(Cl)Cl)C(c1ccccc1)c1ccccc1 (centres unmarked),103%
CN([C@@H](Cc1ccc(OS(=O)(=O)c2cccc3cnccc23)cc1)C(=O)N1CCN(c2ccccc2)CC1)S(=O)(=O)c1cccc2cnccc12,99.4%
Cc1cc2ncc(-c3ccccc3)nc2cc1C,95.3%
Ic1cccc(CSc2nnc(-c3ccncc3)o2)c1,97.4%
